Assay results collected from several papers.
Numbered parts are unrelated; each lists some results of a single study.

Block 1
Target: Histone acetyltransferase KAT6A, winged helix 2, GST fusion (KAT6A, Homo sapiens, UniProt Q92794, residues 85-181)
Method: protein binding microarray
Form: double-stranded DNA, one strand shown
Sample: in vitro
Tested at: not given
Setting: 8-mer, flanks averaged, mean of 2 arrays, mostly near background
Relative to: not given
Direction: higher = stronger binding
Target sequence (chain): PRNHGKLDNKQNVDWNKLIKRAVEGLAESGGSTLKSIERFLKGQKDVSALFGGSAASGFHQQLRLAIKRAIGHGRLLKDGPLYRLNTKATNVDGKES
Sequence | E-score
GCGGCACA | 0.0948
GCTACCGA | 0.146
ATTAGCAA | 0.144
ACTTGTAT | -0.2
CTATTGAA | -0.0956
CAGACGAC | -0.133

Block 2
Target: RNA binding protein fox-1 homolog 2, RRM domain, GST-SBP tag (RBFOX2, Homo sapiens, UniProt O43251-10, residues 100-194)
Method: RNA Bind-n-Seq
Form: RNA
Sample: in vitro
Tested at: 365 nM
Setting: natural RNA segment, single round, ends assumed
Relative to: no-protein control
Direction: higher = stronger binding
Construct (chain): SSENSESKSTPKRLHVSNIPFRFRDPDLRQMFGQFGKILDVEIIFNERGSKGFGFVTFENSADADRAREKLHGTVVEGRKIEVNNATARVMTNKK
Sequence | RBNS enrichment (R)
GGGAGUUCUACAGUCCGACGAUCUUAAAUGAAUUUUUAAGGCUGAAAUCUGUGGGUAAGAUGGAGUCUGGAGCUUUCCUCUUGGAACAGUUAACCGAAGACCCUCAUGGGCAAGGACAUCCGCUUGACUCCCCUGGAAUUCUCGGGUGCCAA | 0.203
GGGAGUUCUACAGUCCGACGAUCUGCCUCUGUACAAGAUGUAGCUUUGAGAGCUACAAAAUGAUAACACUGCUUUAUUACACACUGGUUUCAUUGUCAUUGCAAAAACUUACCCUGGUUGUGGGGGAGAGUUCUGGAAUUCUCGGGUGCCAA | 0.554
GGGAGUUCUACAGUCCGACGAUCUCCGGACCUACCUCAGGGAGCUGAGCGUGCAGGCGCUCCAGGGCAGGCCUGGGACAGAGUCAAGGCUCAGAGAAUAAAGGUAGCUAAUCUCAUCAUAAUAUUUUUAUUAGUGGAAUUCUCGGGUGCCAA | 0.785

Block 3
Target: PABPC1L2, full length, GST fusion (mouse, UniProt A0ABA7IW68)
Method: RNAcompete
Form: RNA
Sample: in vitro
Tested at: 20 nM
Setting: 7-mer, probes averaged, single round
Relative to: mean of 7-mers
Direction: higher = stronger binding
Residues (chain): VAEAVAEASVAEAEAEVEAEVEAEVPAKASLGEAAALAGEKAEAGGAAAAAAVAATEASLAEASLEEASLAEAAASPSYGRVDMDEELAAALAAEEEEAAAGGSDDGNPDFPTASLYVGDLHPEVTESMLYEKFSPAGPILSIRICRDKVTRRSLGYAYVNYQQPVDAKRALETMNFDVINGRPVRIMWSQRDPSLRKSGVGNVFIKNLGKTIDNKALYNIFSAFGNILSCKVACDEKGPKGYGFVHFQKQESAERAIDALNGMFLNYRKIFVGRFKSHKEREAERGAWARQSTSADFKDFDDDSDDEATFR
Sequence | 7-mer Z-score
GUGACAG | 0.135
ACCAUGG | -0.0047
CCUGUUC | -0.438
CAAUGAC | -0.0283

Single results of other studies
Substance | target | test | system | setting | how to read | endpoint | value
PhoQ, residues 284 288 289 292 302 303 ALASRC | PhoP, residues 12 14 15 18 19 IQSYL (Escherichia coli, UniProt P23836) | Sort-seq, item: YFP reporter | E. coli | PhoQ-PhoP variant library, together with: 10 µM Mg2+ | relative to: high Mg2+ state, higher = stronger signaling | fold induction | 14.6

A few entries again (block 3):
Sequence | 7-mer Z-score
ACCAUGG | -0.0047
CCUGUUC | -0.438
